Experimental data collected from several papers.
A part holds a random share of what one study measured.

Block 1
Target: Histone acetyltransferase KAT6A, both winged helices, GST fusion (KAT6A, Homo sapiens, UniProt Q92794, residues 1-181)
Technique: protein binding microarray
Form: double-stranded DNA, one strand shown
Matrix: in vitro
Concentration: not given
Setting: 8-mer, flanks averaged, mean of 2 arrays, mostly near background
Relative to: not given
Reading: higher = stronger binding
Target sequence (chain): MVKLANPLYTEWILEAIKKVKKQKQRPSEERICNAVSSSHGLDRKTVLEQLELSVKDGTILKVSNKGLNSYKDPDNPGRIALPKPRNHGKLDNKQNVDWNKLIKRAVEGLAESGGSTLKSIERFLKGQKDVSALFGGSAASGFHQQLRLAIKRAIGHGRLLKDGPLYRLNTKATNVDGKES
The E-score of `CGGTGAAA` is reported as 0.197.
`AACGCGTT` has an E-score of 0.296.
The E-score of `CTCCAATC` is reported as -0.102.

Block 2
Target: Sox, HMG box (Pigoraptor chileana)
Technique: Spec-seq
Form: double-stranded DNA, one strand shown
Matrix: in vitro
Concentration: not given
Setting: whole probe, mean of replicates
Relative to: not given
Reading: lower = stronger binding
Target sequence (chain): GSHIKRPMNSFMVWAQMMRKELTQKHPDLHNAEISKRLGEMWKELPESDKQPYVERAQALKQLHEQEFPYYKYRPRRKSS
`GAGTCGTCTCGTCAGCACCATCTGGCCGTAGAGCACTCAGGTC`: “relative binding energy” 0.732 ln ratio.
`GAGTCGTCTCGTCAGCACCCAGGTTCCGTAGAGCACTCAGGTC`: “relative binding energy” 1.22 ln ratio.
`GAGTCGTCTCGTCAGCACTGTCGTTCCGTAGAGCACTCAGGTC` — result for “relative binding energy”: 0.288 ln ratio.

Block 3
Target: Centromere-binding protein 1, full length, His-tagged (CBF1, Saccharomyces cerevisiae, UniProt P17106, residues 1-351)
UniProt P17106, sequence (whole entry, looked up): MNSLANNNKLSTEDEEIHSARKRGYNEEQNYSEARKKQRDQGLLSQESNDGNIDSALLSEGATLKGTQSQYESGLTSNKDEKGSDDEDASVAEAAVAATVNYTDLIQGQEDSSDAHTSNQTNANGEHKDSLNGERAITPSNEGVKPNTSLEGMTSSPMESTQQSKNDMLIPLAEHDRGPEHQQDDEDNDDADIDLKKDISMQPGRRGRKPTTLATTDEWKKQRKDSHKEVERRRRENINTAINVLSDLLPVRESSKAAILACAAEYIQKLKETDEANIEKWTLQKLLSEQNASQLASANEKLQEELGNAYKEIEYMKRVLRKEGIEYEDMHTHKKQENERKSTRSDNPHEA
Technique: competition protein-binding microarray
Form: double-stranded DNA, one strand shown
Matrix: in vitro
Concentration: 2 µM
Setting: whole 60-bp probe, lowest competitor level
With: Pho4 competitor, 0.05 µM
Reading: higher = stronger binding
`TTCACAAAATTGCCACTCGTGGTGATATGCTATGGAGTCTTGATTCGCTTGACGCTGCTG` gave a fluorescence intensity of 97.7 a.u.
The fluorescence intensity of `AAAGCGGTAATTTGGGCGGTGGGTGCAGATATCTATGTCTTGATTCGCTTGACGCTGCTG` is reported as 71.9 a.u.
`CCATGGATGAAGTGTATTATAAATTTGGGTTAGGCAGTCTTGATTCGCTTGACGCTGCTG` has a fluorescence intensity of 72.5 a.u.

Further values, each from its own experiment
For `PhoQ, residues 284 288 289 292 302 303 TVTVVA`, the fold induction was 6.57 (PhoP, residues 12 14 15 18 19 SPWRL (Escherichia coli, UniProt P23836); Sort-seq, measured: YFP reporter; E. coli; PhoQ-PhoP variant library, with: 10 µM Mg2+; relative to: high Mg2+ state, higher = stronger signaling).

Some of these lines once more (block 3):
`TTCACAAAATTGCCACTCGTGGTGATATGCTATGGAGTCTTGATTCGCTTGACGCTGCTG` gave a fluorescence intensity of 97.7 a.u.
